Measurements collected from several papers.
Parts stem from different laboratories: compare values within a part only. Changes are numbered by the printed parent chain.

Set 1 — target: CCNE2, cyclin fold, Cln2 fusion (human); method: yeast growth competition, sequencing; medium: yeast; setting: weak parent motif; relative to: not given; reading: higher = stronger binding
Starting sequence: SLBP docking peptide (human); ARYKRKLLINDFG
Substitution	normalised enrichment score
R5A L7A	0.549
N10E	1.5
R2Q	0.853
L8Q	0.831
D11P	1.33
R5W	-0.566
L8V	1.24
D11K	1.53
F12Y	1.47
K4C	0.0186

Set 2 — target: CEP164, C-terminal peptide (human); method: DHFR complementation, deep sequencing; medium: yeast; relative to: wild type; reading: higher = weaker binding
Setting: single substitutions, model-inferred values
Starting sequence: PDZK1, PDZ domain 2 (human); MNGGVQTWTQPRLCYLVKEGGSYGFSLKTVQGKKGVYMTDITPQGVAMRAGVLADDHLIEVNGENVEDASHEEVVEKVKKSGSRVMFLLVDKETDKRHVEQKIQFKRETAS; partner HNRVKVYRF
Substitution	binding free energy change [kcal/mol]
N2C	-0.0936
A110T	-0.115
L88T	-0.144
N65S	0.182
V30W	0.115
K102R	-0.139
E19C	0.193
D40Q	0.492
E60Q	0.103

Set 3 — method: universal PBM; form: double-stranded DNA, one strand shown; medium: in vitro; concentration: 600 nM; reading: higher = stronger binding
Target: Sal-like protein 4, full length isoform A (SALL4, Homo sapiens, UniProt Q9UJQ4, residues 1-1053)
UniProt Q9UJQ4, sequence (whole entry, looked up): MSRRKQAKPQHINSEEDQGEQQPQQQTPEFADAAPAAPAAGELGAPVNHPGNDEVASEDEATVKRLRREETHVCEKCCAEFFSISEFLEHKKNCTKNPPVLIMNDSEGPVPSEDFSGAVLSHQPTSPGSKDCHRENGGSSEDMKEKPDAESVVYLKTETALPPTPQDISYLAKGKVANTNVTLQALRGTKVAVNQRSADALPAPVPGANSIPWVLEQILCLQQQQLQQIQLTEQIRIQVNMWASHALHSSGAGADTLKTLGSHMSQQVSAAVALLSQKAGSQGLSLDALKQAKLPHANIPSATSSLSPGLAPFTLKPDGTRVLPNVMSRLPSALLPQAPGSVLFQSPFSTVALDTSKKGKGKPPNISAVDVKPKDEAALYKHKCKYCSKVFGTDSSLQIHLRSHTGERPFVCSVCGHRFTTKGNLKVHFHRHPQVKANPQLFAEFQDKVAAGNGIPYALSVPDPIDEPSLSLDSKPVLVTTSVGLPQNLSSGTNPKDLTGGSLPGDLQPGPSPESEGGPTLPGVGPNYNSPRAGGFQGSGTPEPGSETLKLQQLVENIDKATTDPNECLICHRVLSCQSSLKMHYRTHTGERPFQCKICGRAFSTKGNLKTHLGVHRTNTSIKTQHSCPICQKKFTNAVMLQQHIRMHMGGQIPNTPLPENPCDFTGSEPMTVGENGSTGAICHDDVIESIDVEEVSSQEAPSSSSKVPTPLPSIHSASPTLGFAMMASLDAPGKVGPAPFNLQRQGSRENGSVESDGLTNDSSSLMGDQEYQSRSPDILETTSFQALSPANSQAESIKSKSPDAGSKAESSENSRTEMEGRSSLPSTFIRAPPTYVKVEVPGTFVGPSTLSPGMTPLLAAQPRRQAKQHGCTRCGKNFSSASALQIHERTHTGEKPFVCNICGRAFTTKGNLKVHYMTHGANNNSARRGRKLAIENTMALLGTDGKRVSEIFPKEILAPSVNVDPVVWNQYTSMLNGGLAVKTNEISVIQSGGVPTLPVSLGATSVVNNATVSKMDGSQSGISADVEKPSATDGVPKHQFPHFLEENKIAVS
Setting: 8-mer, flanks averaged, mean of replicates
Sequence	E-score
GGTAGGCA	-0.116
AAGTCCAA	0.194
ATCAACAG	0.0766
AGACTCAA	0.0541
ATGAATTA	0.377
CCGAATGA	0.119
CGTAGCGA	-0.145
CCCCCAGA	-0.274
GAGCACGC	-0.312
CCTATGCC	-0.00668
GCTGGGAA	-0.136
CATGATGA	0.163
CTGCATTA	-0.0199
ATAATTTA	0.41
GCCATTTA	0.102
GAACAAGC	0.0283

Other studies, line by line
Substance	target	test	system	conditions	how to read	measurement	value
PhoQ, residues 284 288 289 292 302 303 SMYGEC	PhoP, residues 12 14 15 18 19 STWGI (Escherichia coli, UniProt P23836)	Sort-seq, refers to: YFP reporter	E. coli	PhoQ-PhoP variant library, together with: 10 µM Mg2+	relative to: high Mg2+ state, higher = stronger signaling	fold induction	1.69

A few entries again (set 1):
Substitution	normalised enrichment score
R5W	-0.566
L8V	1.24
D11K	1.53
